# Experimental data from different studies.
# Protocols differ between the studies behind these lines.
# Cell line: CAKI-1
SMILES,test,conditions,scale,quantity,value
CC(Cc1ccc(Cl)cc1)=C(c1ccc(Cl)cc1)c1ccc(OCCN(C)C)cc1,cell growth or viability,,,GI50,4.63 µM
COc1cc(CNC(=O)C[C@H](C)CCC=C(C)C)ccc1OCc1cn(-c2ccc([N+](=O)[O-])cc2)nn1,SRB,"10 µM, 48 h",,growth percent,72.1%
CC(=O)OC[C@H]1O[C@@H](Sc2sc(C(=O)c3ccc(Br)cc3)c(N)c2-c2nc3ccccc3s2)[C@H](OC(C)=O)[C@@H](OC(C)=O)[C@@H]1OC(C)=O,SRB,"10 µM, 48 h",relative to: untreated,growth,85.5%
COc1ccc(C2=Nn3c(NN=C4C(=O)N(C)c5ccc(Br)cc54)nnc3SC2)cc1,"cell growth or viability, SRB",10 µM,,inhibition,33%
COc1cc(CNC(=O)C[C@H](C)CCC=C(C)C)ccc1OCc1cn(-c2cccc(Cl)c2)nn1,SRB,"10 µM, 48 h",,growth percent,87.6%
O=C(O)c1ccc([P+]([Au-][Cl])(c2ccccc2)c2ccccc2)cc1,"cell growth or viability, XTT",,,IC50,19.2 µM
CCC(=C(c1ccc(Cl)cc1)c1ccc(OCCCN(C)C)cc1)c1ccc(OC)cc1,cell growth or viability,,,GI50,5.55 µM
O=C1Nc2ccccc2/C1=N\Nc1nnc2n1N=C(c1ccc(Cl)cc1)CS2,"cell growth or viability, SRB",10 µM,,inhibition,13%
CC(=O)OC[C@H]1O[C@@H](Sc2sc(C(=O)c3ccc(C)cc3)c(N)c2-c2nc3ccccc3s2)[C@H](OC(C)=O)[C@@H](OC(C)=O)[C@H]1OC(C)=O,SRB,"10 µM, 48 h",relative to: untreated,growth,58.5%
COc1cc(CNC(=O)C[C@H](C)CCC=C(C)C)ccc1OCc1cn(-c2cccc([N+](=O)[O-])c2)nn1,SRB,"10 µM, 48 h",,growth percent,69.5%
CC/C=C\C/C=C\C/C=C\C/C=C\C/C=C\C/C=C\CCC(=O)Nc1ccn(C2OC(CO)C(O)C2(F)F)c(=O)n1 (stereo not shown),"cell growth or viability, SRB",,,GI50,0.0253 µM
O=C([O][Ti+2][O]C(=O)c1ccc([P+]([Au-][Cl])(c2ccccc2)c2ccccc2)cc1)c1ccc([P+]([Au-][Cl])(c2ccccc2)c2ccccc2)cc1.c1cc[cH-]c1.c1cc[cH-]c1,"cell viability, XTT",24 h,,IC50,10.3 µM
COc1cc(CNC(=O)C[C@H](C)CCC=C(C)C)ccc1OCc1cn(-c2ccccc2[N+](=O)[O-])nn1,SRB,"10 µM, 48 h",,growth percent,48.6%
